Results pooled from the literature.
Numbered parts are unrelated; each lists some results of a single study.
Sequence of UniProt Q9H4A3 (whole entry, looked up): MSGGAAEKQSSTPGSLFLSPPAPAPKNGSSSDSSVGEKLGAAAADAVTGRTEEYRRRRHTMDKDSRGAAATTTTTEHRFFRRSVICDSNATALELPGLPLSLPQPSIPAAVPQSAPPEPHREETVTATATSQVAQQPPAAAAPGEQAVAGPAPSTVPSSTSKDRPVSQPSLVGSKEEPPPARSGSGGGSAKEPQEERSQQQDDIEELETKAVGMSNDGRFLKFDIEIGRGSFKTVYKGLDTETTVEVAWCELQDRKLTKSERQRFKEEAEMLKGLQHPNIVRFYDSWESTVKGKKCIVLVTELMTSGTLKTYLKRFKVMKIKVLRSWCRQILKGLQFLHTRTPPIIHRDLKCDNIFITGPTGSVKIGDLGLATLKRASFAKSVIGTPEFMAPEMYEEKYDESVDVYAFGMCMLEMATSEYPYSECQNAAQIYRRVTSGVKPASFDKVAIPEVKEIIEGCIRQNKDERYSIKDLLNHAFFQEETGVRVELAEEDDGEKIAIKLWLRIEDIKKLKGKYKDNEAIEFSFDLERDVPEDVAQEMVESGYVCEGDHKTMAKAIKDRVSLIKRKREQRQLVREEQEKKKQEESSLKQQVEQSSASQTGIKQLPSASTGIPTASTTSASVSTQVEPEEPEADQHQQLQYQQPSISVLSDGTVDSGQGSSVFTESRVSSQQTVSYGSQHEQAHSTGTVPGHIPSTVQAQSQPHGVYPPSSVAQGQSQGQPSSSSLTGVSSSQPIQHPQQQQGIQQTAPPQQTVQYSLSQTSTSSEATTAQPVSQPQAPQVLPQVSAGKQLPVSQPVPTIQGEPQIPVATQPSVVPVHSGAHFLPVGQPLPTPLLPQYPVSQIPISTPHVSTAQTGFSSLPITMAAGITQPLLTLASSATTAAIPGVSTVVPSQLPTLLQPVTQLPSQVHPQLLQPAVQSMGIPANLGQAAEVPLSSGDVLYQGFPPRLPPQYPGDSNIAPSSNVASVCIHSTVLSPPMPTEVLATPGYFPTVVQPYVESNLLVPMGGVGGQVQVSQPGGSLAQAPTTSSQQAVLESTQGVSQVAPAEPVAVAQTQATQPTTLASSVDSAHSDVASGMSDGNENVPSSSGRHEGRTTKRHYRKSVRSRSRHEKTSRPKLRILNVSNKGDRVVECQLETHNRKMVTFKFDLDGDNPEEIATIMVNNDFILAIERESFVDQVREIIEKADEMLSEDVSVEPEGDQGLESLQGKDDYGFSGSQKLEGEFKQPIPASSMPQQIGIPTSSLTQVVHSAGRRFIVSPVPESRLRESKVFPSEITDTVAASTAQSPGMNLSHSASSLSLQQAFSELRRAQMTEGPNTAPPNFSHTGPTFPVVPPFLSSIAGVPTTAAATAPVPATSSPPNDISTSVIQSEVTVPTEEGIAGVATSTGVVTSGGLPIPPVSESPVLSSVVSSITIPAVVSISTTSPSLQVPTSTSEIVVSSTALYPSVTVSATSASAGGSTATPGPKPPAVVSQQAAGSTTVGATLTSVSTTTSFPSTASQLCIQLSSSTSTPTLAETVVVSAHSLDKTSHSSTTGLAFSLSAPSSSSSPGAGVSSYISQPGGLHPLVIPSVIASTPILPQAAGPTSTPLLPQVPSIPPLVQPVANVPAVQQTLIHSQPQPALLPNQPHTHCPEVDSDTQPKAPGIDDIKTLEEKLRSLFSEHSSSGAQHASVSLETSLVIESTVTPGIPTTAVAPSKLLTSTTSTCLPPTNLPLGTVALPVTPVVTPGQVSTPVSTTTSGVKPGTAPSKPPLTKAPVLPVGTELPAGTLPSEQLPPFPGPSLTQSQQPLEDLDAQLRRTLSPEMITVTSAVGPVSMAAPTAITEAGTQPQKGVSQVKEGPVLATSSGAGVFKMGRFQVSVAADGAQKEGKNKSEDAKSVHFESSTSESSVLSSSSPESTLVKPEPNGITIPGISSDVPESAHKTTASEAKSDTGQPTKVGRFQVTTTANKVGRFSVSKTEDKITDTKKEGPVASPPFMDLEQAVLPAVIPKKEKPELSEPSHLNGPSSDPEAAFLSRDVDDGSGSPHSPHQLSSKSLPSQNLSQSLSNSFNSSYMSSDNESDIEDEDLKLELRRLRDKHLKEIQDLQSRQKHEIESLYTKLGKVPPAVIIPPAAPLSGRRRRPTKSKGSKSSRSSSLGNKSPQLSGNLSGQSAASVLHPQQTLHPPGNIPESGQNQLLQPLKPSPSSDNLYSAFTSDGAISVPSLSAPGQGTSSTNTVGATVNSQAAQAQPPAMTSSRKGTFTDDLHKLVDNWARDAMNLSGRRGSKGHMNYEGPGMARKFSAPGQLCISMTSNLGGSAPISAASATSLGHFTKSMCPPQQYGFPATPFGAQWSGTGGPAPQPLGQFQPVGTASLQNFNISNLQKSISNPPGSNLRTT
Sequence of UniProt Q15349 (whole entry, looked up): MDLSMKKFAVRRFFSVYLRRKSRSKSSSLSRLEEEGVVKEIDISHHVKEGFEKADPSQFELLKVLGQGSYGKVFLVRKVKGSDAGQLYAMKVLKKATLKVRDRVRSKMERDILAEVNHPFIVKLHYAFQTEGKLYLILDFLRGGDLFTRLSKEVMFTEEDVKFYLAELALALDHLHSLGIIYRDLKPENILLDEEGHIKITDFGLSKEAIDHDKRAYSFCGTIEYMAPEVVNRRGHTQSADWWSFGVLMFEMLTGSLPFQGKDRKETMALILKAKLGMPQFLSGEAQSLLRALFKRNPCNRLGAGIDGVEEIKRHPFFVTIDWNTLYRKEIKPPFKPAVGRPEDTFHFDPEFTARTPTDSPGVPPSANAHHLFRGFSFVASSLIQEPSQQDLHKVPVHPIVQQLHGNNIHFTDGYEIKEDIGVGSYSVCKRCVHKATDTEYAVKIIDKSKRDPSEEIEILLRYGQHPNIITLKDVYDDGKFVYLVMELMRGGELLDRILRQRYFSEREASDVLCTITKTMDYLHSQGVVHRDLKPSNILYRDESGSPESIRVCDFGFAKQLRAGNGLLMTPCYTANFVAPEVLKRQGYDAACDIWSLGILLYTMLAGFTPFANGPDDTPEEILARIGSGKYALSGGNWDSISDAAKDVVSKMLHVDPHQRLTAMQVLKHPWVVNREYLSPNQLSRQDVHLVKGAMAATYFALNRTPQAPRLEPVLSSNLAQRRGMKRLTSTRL
Sequence of UniProt P36897 (whole entry, looked up): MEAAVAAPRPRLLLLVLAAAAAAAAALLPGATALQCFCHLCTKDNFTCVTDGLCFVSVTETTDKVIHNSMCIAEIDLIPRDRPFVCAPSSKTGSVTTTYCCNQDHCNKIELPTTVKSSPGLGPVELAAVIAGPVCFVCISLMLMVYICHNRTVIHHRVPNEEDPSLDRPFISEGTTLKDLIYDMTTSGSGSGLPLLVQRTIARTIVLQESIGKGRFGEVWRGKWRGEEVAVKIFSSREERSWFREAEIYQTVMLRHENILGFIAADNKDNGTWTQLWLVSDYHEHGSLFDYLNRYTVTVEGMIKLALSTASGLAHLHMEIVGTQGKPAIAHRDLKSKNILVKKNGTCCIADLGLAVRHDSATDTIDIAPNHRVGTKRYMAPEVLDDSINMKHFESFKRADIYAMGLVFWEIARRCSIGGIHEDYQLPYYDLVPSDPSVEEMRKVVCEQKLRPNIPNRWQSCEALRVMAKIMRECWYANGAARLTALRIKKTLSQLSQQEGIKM
Sequence of UniProt O15264 (whole entry, looked up): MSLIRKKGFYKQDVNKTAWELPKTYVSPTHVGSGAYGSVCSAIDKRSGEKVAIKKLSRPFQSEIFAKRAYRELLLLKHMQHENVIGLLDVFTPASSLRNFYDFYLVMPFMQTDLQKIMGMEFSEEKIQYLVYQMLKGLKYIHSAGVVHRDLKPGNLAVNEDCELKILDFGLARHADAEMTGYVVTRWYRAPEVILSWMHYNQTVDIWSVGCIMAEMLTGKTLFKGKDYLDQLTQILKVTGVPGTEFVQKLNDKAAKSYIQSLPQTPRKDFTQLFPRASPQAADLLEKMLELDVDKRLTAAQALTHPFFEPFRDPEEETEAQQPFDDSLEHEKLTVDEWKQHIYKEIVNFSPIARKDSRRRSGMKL

Series 1 — endpoint: inhibition
SMILES: COc1cc(C(=O)N2CCC(N3CCN(C)CC3)CC2)ccc1Nc1ncc2c(n1)N(C)c1ccccc1C(=O)N2C
MINK (mouse); probe labelling, inhibitor, KiNativ ActivX ATP probe; mouse brain lysate; 0.1 µM, Lys1 site peptide: 3%
PCTAIRE1 (human); probe labelling, KiNativ ADP probe; human PBMC lysate; concentration not given, LYS1 labelled site: -8.1%
human PBMC; probe labeling, inhibitor, KiNativ profiling; cell lysate; concentration not given, domain 2, LYS1 site, with: ADP acyl-phosphate probe 1 µM: 33.7%
NEK9 (mouse); probe labelling, KiNativ, measured: DIkTLNIFLTK peptide, LYS2 site; brain tissue lysate (mouse); 1 µM, with: ATP acyl-phosphate probe: 0.4%

Series 2 — read-out: cell-free assay; technique: competition with immobilised ligand; concentration: 1 µM; endpoint: remaining binding
Structure (SMILES): O=C(NCc1ncc(C(F)(F)F)cc1Cl)c1ccc2c(c1)C1(CCS(=O)(=O)CC1)[C@H](C1CC1)N2S(=O)(=O)c1ccc(F)cc1
CDC42BPA (Homo sapiens, UniProt Q5VT25): 100%
MET (Homo sapiens, UniProt P08581, Y1235D): 100%
MKNK1 (Homo sapiens, UniProt Q9BUB5): 74%
WNK1 (Homo sapiens, UniProt Q9H4A3): 90%
TGFBR1 (Homo sapiens, UniProt P36897): 100%
PIK3CG (Homo sapiens, UniProt P48736): 82%
STK36 (Homo sapiens, UniProt Q9NRP7): 100%
NEK5 (Homo sapiens, UniProt Q6P3R8): 100%
HCK (Homo sapiens, UniProt P08631): 69%
Tyrosine-protein kinase ABL1, phosphorylated (ABL1, Homo sapiens, UniProt P00519, Y253F): 85%
Ribosomal protein S6 kinase alpha-2, N-terminal kinase domain (RPS6KA2, Homo sapiens, UniProt Q15349): 100%
FLT3 (Homo sapiens, UniProt P36888, ITD): 100%
MET (Homo sapiens, UniProt P08581, M1250T): 89%

Series 3 — species: human; matrix: microsomes or S9; concentration: 2 µM; time: 0.5 h; endpoint: remaining compound
COC(=O)C1CCCN1C(=O)c1ccc(NC(c2ccc(Cl)cc2)c2ccccc2Cl)c(F)c1 (stereo not drawn): 48.1%
Cc1sc(Br)nc1-c1ccc(NS(C)(=O)=O)c(Cl)c1: 57.9%
O=C(C[C@H]1CCC[C@@H](N2CCCC2)[C@@H]1C(=O)c1cccs1)c1cccs1: 5.95%

Series 4 — organism: Sarcocystis neurona; read-out: parasite growth; concentration: 10 µM; time: 96 h; setting: first screen; relative to: untreated; endpoint: log2 fold change
C[C@]12C=CC(=O)C=C1CC[C@@H]1[C@@H]2C(=O)C[C@@]2(C)[C@H]1CC[C@]2(O)C(=O)CO: 0.25
O=C(O[C@H]1[C@H](Oc2ccccc2COC(=O)C2(O)C=CCCC2=O)O[C@H](CO)[C@@H](O)[C@@H]1O)c1ccccc1 (stereo partly drawn): 0.17
CC1(C)S[C@@H]2[C@H](NC(=O)[C@H](N)c3ccccc3)C(=O)N2[C@H]1C(=O)O: 0.03
COc1cc2nc(N3CCN(C(=O)C4COc5ccccc5O4)CC3)nc(N)c2cc1OC (stereo not drawn): -1.87

Series 5 — technique: protein-binding microarray; molecule type: double-stranded DNA, one strand shown; matrix: in vitro; concentration: not given; reading: higher = stronger binding; endpoint: E-score
Target: Myc proto-oncogene protein, bHLH-zipper, MAX partner unstated (MYC, Homo sapiens, UniProt P01106, residues 368-449)
Sequence of UniProt P01106 (368-449, looked up): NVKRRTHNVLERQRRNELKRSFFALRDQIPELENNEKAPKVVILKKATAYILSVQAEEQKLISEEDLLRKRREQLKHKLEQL
Setting: k-mer, scored over probes, only values ≥0.25
ATGTGGCC: 0.394
ACATGTTC: 0.31
GCATGTAC: 0.387
CACATGCG: 0.468
AACATGCC: 0.326
CACATGGA: 0.476
CTGGCCAC: 0.265
CATGGACC: 0.33

Other studies, line by line
Cc1nc(-c2ccccc2)c(-c2ccncc2)o1  IC50 (Mitogen-activated protein kinase 13 (MAPK13, Homo sapiens, UniProt O15264); enzyme activity, inhibitor, radiometric): > 30 µM

Some of these lines once more (series 5):
CACATGCG: 0.468
GCATGTAC: 0.387
CATGGACC: 0.33
ATGTGGCC: 0.394
